{"data": "Values quoted from earlier work, collected from citations in different studies", "CDK1": "Cyclin-dependent kinase 1 (CDK1, Homo sapiens, UniProt P06493)", "note": "Each line is one published result; not all experiments were run side by side. Numbers after ± are the reported error."}
{"Structure (SMILES)": "CCC[C@@H]1CN[C@H](C(=O)O)[C@H]1c1cccc(C(=O)O)c1", "target": "Glutamate receptor ionotropic, kainate 1 (Rattus norvegicus, UniProt P22756)", "assay": "binding, radioligand displacement", "conditions": "cloned homomeric receptor", "measurement": "Ki", "result": "0.62 µM"}
{"Structure (SMILES)": "C[C@H](N)C(=O)N[C@@H](CCCNC(=N)N)C(=O)N[C@H](C(=O)N[C@@H](CCCCN)C(=O)N[C@@H](CCC(N)=O)C(=O)N[C@H](C(=O)N[C@@H](C)C(=O)N[C@@H](CCCNC(=N)N)C(=O)N[C@@H](CCCCN)C(=O)N[C@@H](CO)C(=O)N[C@H](C(=O)NCC(=O)O)[C@@H](C)O)[C@@H](C)O)[C@@H](C)O", "target": "BIRC5 (Homo sapiens, UniProt O15392)", "assay": "ITC", "conditions": "pH 7.2, 25 °C", "measurement": "Kd", "result": "9.37 ± 0.31 µM"}
{"Structure (SMILES)": "COc1cc2[nH]c3c(-c4c(C5CC5)n[nH]c4C)nccc3c2cc1-c1c(C)noc1C", "target": "Bromodomain-containing protein 4, BD2 (BRD4, Homo sapiens, UniProt O60885)", "assay": "binding", "measurement": "Kd", "result": "0.67 µM"}
{"Structure (SMILES)": "CCCC[C@@H](C(=O)Nc1ccc(Br)cc1)n1nc(C)cc(Cc2cccc(OC)c2)c1=O (racemic)", "target": "FPR2 (Homo sapiens, UniProt P25090)", "assay": "agonist", "system": "HL-60 expressing FPR2", "measurement": "EC50", "result": "7 µM"}
{"Structure (SMILES)": "COc1ccc(Nc2nnc(NCC(=O)Nc3c(F)cccc3F)s2)cc1", "target": "CD28 (Homo sapiens, UniProt P10747)", "assay": "binding, microscale thermophoresis", "measurement": "Kd", "result": "29.6 ± 12.7 µM"}
{"Structure (SMILES)": "O=C1N=C(Nc2ccccc2)S/C1=C\\c1ccc2ncccc2c1", "target": "CDK1", "assay": "kinase activity, inhibitor", "measurement": "IC50", "result": "2 µM"}
{"Structure (SMILES)": "O=C(O)c1cc([C@H]2CCN[C@@H]2C(=O)O)ccc1Cl", "target": "Glutamate receptor ionotropic, NMDA 2A, with GluN1 (Grin2a, Rattus norvegicus, UniProt Q00959)", "assay": "ion current, antagonist, two-electrode voltage clamp", "conditions": "GluN1/GluN2A", "measurement": "IC50", "result": "4.7 µM"}
{"Structure (SMILES)": "COc1cc(O)cc2ccc3cc(O)ccc3c12", "target": "CDK1", "assay": "kinase activity, inhibitor", "measurement": "IC50", "result": "4.1 µM"}
{"Structure (SMILES)": "CSCC[C@H](NC(=O)[C@H](CC(C)C)NC(=O)[C@@H](NC(=O)[C@H](C)NC(=O)[C@H](Cc1ccccc1)NC(=O)[C@H](Cc1ccc(O)cc1)NC(=O)[C@@H](N)[C@@H](C)O)C(C)C)C(N)=O", "target": "ADGRG1 (Homo sapiens, UniProt Q9Y653)", "assay": "agonist", "measurement": "EC50", "result": "35 µM"}
{"Structure (SMILES)": "CS(=O)(=O)N(CCN)c1ccc(Nc2ncc3cnn(C4CCCCCC4)c3n2)cn1", "target": "CDK1", "assay": "kinase activity, inhibitor", "measurement": "IC50", "result": "0.003 µM"}
{"Structure (SMILES)": "C[C@@H]1NC(=O)[C@H](CC(N)=O)NC(=O)[C@H](Cc2c[nH]c3ccccc23)NC(=O)[C@H](CCCNC(=N)N)NC(=O)[C@@H](Cc2ccccc2)NC(=O)[C@H](Cc2c[nH]cn2)NC(=O)[C@@H](NC(=O)[C@@H](N)Cc2ccc(O)cc2)CSSC[C@@H](C(=O)N[C@@H](Cc2ccc(O)cc2)C(N)=O)NC(=O)[C@H](Cc2ccccc2)NC1=O", "target": "Melanocortin receptor 4 (Mus musculus, UniProt P56450)", "assay": "cAMP, agonist", "measurement": "EC50", "result": "0.0003 µM"}
{"Structure (SMILES)": "O=C(O)c1cc(O)cc([C@H]2CCN[C@@H]2C(=O)O)c1", "target": "NMDA receptor (rat)", "assay": "binding, radioligand binding", "system": "rat synaptosomes", "conditions": "together with: [3H]CGP39653", "measurement": "Ki", "result": "4.1 µM"}
{"Structure (SMILES)": "COc1cc(Nc2ccnc3ccc(Br)cc23)cc(OC)c1OC", "target": "ACVR1", "assay": "binding", "measurement": "Kd", "result": "0.98 µM"}
